Published values of several laboratories.
Numbered parts are unrelated; each lists some results of a single study.

Block 1
Target: Histone acetyltransferase KAT6A, both winged helices, GST fusion (KAT6A, Homo sapiens, UniProt Q92794, residues 1-181)
Technique: protein binding microarray
Form: double-stranded DNA, one strand shown
Medium: in vitro
Concentration: not given
Notes: 8-mer, flanks averaged, mean of 2 arrays, mostly near background
Baseline: not given
Direction: higher = stronger binding
Measurement: E-score
Target sequence (chain): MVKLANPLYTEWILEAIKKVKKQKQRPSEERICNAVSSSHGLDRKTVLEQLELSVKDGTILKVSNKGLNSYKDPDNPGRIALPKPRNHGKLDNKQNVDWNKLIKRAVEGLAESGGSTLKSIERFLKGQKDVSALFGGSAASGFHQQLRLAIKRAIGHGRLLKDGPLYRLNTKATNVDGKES
CACAGTTC: 0.00634
CGGGCGCA: 0.278
TCGAGGCA: -0.154
GTTGTGCA: -0.142
TAGAGGCA: -0.162
GTCAGCTA: 0.0295
CGCCACCC: 0.121
CCCCGAAG: 0.0667
TCACGGAA: 0.311
GGGCAATA: 0.0186
AGGCACTA: -0.102
AAAGCCGT: 0.296
AGGTAAGC: -0.144
AAGGGAGC: -0.168
CAGCATTA: -0.147
GTATTACA: -0.0144
CACTAATG: -0.132
CTCCATAA: -0.18
AGAAGCCG: 0.169
AGTCATGA: -0.0462
CATCTCCG: 0.0142
ATGCCTCG: 0.0369
ATTCCCTA: -0.0709
AACGATAT: -0.0463
AATGGACT: -0.252

Block 2
Target: Phosphate system positive regulatory protein PHO4, full length, GST-tagged (PHO4, Saccharomyces cerevisiae, UniProt P07270, residues 1-312)
Chain of UniProt P07270 (whole entry, looked up): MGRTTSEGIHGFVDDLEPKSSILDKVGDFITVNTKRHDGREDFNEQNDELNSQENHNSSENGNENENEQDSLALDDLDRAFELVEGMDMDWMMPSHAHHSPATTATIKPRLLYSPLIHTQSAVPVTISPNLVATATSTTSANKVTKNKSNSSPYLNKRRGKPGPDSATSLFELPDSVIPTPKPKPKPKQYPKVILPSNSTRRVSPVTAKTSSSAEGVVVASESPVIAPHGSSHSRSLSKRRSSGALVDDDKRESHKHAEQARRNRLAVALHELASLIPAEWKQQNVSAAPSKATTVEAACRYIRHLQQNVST
Technique: competition protein-binding microarray
Form: double-stranded DNA, one strand shown
Medium: in vitro
Concentration: 2 µM
Notes: whole 60-bp probe, lowest competitor level
Added: Cbf1 competitor, 0.05 µM
Direction: higher = stronger binding
Measurement: fluorescence intensity
Constant ends, left off below: … GTCTTGATTCGCTTGACGCTGCTG
CACTTTTTAAACCATCACGGCCTCTGACGTAATCGG: 4590 a.u.
TTTTCAAGGTCGCGGCCCGTGCAAAGCGCGGCTGGA: 6430 a.u.
TACATATAACGTATACGTTAGAAAAATTTGAATACA: 3630 a.u.
AGTGTAAGATGTGCTTTCGTGACTCGAGCGAAGGGG: 5060 a.u.
CTTCTGTAAATTTGCCAAGTGGGTGGACGCGCCCCG: 4380 a.u.
AGGATCTAATTCGTCTACGTGGCAAAGGTTTTCAAA: 5800 a.u.
AAAGCGGTAATTTGCACAGTGGGTGCAGATATCTAT: 4590 a.u.
ACTGTTGAAAAAAAGCACGCTGCAGTTGCATCAGGG: 9080 a.u.
TACAATAAATAAGTTCTATCATAATACAAGGGAATT: 3700 a.u.
CTTCTGTAAATTTGTGACGTGGGTGGACGCGCCCCG: 5460 a.u.
CAAATGCCATGATTGCACGTGCAAAGTTTTGAGAAG: 17300 a.u.
CTTCTGTAAATTTGCTACGTGGGTGGACGCGCCCCG: 7640 a.u.
AAAGCGGTAATTTGCAGCGTGGGTGCAGATATCTAT: 8680 a.u.
AAAAGTATACTCGGAAACGTGATGGAATACCTTAGG: 10700 a.u.
TTTGGCGCAAATTACCATGTGAGCGAGCGGGAATAA: 6220 a.u.
TGGGCCTGAAAACTACACGTGGTGAGAGCCACAGTA: 16400 a.u.
ATATGCTTCCTTTGTCACGTGCAAATTCTGACTCCA: 16700 a.u.
AAATTACTAAGTTGCCGCGTGGGTGACGCCGTATGA: 10500 a.u.
AAAAAGAAACTCCATCACGATGTAAGTACAAATGGT: 8610 a.u.
GTTTGCAGCTTACTTCACGTGTGGATGGAAAATTGA: 11700 a.u.
GGCCAAACAGTTGGGCACATGGCAGGAGATGTAGCC: 10700 a.u.
TGCGCAACAACTTGTCGTGTGGGTGTATGTCTAGAA: 6680 a.u.
CAGAAGCCGCGATTTCACATGCCGGCCATTATGGCA: 5170 a.u.
GGTTTGTTTACAGTACGCGTGGTGAGACCATAAAGG: 8780 a.u.
CTTGCAAAAAGAAAAGGCGTGGCCGTAGTCTTCGCT: 7030 a.u.

Block 3
Target: RNA binding protein fox-1 homolog 2, RRM domain, GST-SBP tag (RBFOX2, Homo sapiens, UniProt O43251-10, residues 100-194)
Technique: RNA Bind-n-Seq
Form: RNA
Medium: in vitro
Concentration: 365 nM
Notes: natural RNA segment, single round, ends assumed
Baseline: no-protein control
Direction: higher = stronger binding
Measurement: RBNS enrichment (R)
Constant ends, left off below: GGGAGUUCUACAGUCCGACGAUC … UGGAAUUCUCGGGUGCCAA
Target sequence (chain): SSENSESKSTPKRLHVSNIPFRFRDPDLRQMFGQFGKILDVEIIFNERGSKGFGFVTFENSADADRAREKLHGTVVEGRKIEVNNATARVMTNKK
AGGAUUCCCUCCCGGAGACUCGCACGGUGCUCCCUGCUCACGCGUUGUCACAGUUAGUCCGGAAAUGACUGAAACCAGGCAUUCUCCCGGACCUCAGCGUGGGGGAGCCU: 0.392
AGUGUGGCAGCUUUCACAGCACAGGACCGUUCAUCGGGGGCCUAAACGUUUCCCUCAGCUCUGUCACCAACUCACUUCUCUCGGCUUCGUUGUCUGUAAAUUGGAUGAAA: 0.438
ACAUUUGAUAUUUUUCUUUUUAGUUUCCUUGACUAAAGAGGUACAAUAUACUCUGAUCUACCCCUUAAUAUUGAAUAAAAGAACCAAGAAGUUCUUUCAGAUCACCAAUA: 0.307
AUAUUUUCCGGUGCUGAUAUGUUUCCAGACUCCAGCGCAACCUGGGGUGCUCUCCAGACCCGUGCAGGGGCCGCCUGGGGUACACGGAAGGAAGUUGAGUCCUAGUGCAA: 0.523
ACACGUGGUGCUGCUGCCCUGGGUACAGCCCACCAACACCCAGGGCCAGCCAGUAUCACCAGACCUCUGCUGGACCUAGUCAAGAAGCCCAGUUAACAUGUAGAGCAUGG: 1.1
CAGGCUGGCAGCUCUCCAGUCAGGAGGCAUAGUUUUUACUGAACAAUCAAAGCACUUGGACUCUUGCUCUUUCUACUCUGAACUAAUAAAUCUGUUGCCAAGCUGGCUAG: 0.246
GGGGGCUCCCUGGCGCAUGCCUGCUCCUGUCCCUGGAUUACCACACGUGCCCUCCCUGCCACCCUCCGUCUAGAGCAAGCGGAUGCCCCCCAGCCUGCAGCAGAAGCCUC: 2.23
UUCUUUGUGUCAACAUGAACAAAUUUUAUUUGUAGGGGAACUCAUUUGGGGUGCAAAUGCUAAUGUCAAACUUGAGUCACAAAGAACAUGUAGAAAACAAAAUGGAUAAA: 0.871
GCAGAAGAGCGUGGCCUCUCUUAUAGGGAAGAUGUAAUUAUGGAUCAAAGAGUGCUAAGAAAAUUGCGAAGAAGCCUUACUGCUUACACCAGAGAGCUCAGGGCAGCUUU: 0.417
AUGAAUUGCAAUAACCAGCUUCACACAAGCAUAACUGAUAAACGCGAGUGCUAUUGUAGUCUUGGCAAGUGAGCCAAGAACCUAGGAGCAGGGCCAUUCCUACUGAAGGA: 0.379
UGAAUGAGGGAAAGUCUGAUGCUAAGAUACUGCCUGCACUGGAAUGUCAAACACUAUAUAACAAGCUGUGGUUUUUAAAAGCUAUUGAAUAAUGUUUACAUUGGUCCCUG: 0.749
UCAUCCCCAGCGAGGGUUUCCUCUCAGUCAUUUGUUUACCAGAAAGGAUGAAACUUGCCUGUUGGGGCGGAGCUGUCGCUCCUGAGGGGCCCCACCUUUACAUCCCAUCC: 1.08

Block 4
Target: Interferon regulatory factor 3, full length, phosphomimetic (IRF3, Homo sapiens, UniProt Q14653, residues 1-427, S386D/S396D/S398D/S402D/T404D/S405D)
Technique: protein-binding microarray
Form: double-stranded DNA, one strand shown
Medium: in vitro
Concentration: 2540 nM top
Notes: 60-bp whole probe
Added: salmon DNA 0.4 mg/ml
Baseline: random background probes
Direction: higher = stronger binding
Measurement: fitted relative affinity
Constant ends, left off below: GCCTAGCAC … GTCTTGATTCGCTTGACGCTGCTG
Construct (chain): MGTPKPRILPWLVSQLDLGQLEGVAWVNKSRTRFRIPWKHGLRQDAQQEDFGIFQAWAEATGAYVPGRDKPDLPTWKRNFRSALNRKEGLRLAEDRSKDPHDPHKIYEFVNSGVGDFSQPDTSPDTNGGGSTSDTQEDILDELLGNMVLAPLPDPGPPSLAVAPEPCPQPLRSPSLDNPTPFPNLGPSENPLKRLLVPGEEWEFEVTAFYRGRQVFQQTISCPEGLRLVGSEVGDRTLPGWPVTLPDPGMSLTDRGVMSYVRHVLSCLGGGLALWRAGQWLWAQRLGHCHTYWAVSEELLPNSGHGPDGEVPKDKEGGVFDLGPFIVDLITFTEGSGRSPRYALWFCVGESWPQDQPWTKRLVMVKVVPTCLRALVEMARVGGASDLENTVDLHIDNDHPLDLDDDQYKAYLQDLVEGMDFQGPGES
TTAGGTTTCGACTTTCGGTTCGTGCTA: 4.52 z-score
TTATGTCTCCTTATCCTTTAGTGCTAG: 2.81 z-score
GACGGACTGGGTTTCGGTACGTGCTAG: 3.35 z-score
GACGAGATCGGGACTGGAGACGTGCTA: -0.0994 z-score
TTAGGTCTCGGTATCTGTTAGTGCTAG: 1.23 z-score
TTAGGACTGGACACAGGGTTAGTGCTA: -0.642 z-score
GACGATTTCAGACTGGAGGCGTGCTAG: 0.928 z-score
GGGCATTTAGAAAATGGAAATGTGCTA: -0.244 z-score
TCATTTTCATATATATAACTGTGCTAG: 3.03 z-score
TCAGTTTTACTTTCTATACTGTGCTAG: 5.3 z-score
TTAGATATCAGACTGGATTGGTGCTAG: -0.0829 z-score
GACGGTTTCCCTATCCTGACGTGCTAG: 6.88 z-score
GACGAACTGATACTGGAGACGTGCTAG: 0.382 z-score
GACGGTTTACTTCTCCTGACGTGCTAG: 3.16 z-score
TTAGGACTGCTTCTACTTTAGTGCTAG: -0.226 z-score
TCATCTGTGCCTTTTTTACTGTGCTAG: 1.45 z-score
GACGGTATCGACACTGGGGACGTGCTA: 0.548 z-score

Repeated from above (block 3):
AGGAUUCCCUCCCGGAGACUCGCACGGUGCUCCCUGCUCACGCGUUGUCACAGUUAGUCCGGAAAUGACUGAAACCAGGCAUUCUCCCGGACCUCAGCGUGGGGGAGCCU: 0.392
AGUGUGGCAGCUUUCACAGCACAGGACCGUUCAUCGGGGGCCUAAACGUUUCCCUCAGCUCUGUCACCAACUCACUUCUCUCGGCUUCGUUGUCUGUAAAUUGGAUGAAA: 0.438
ACAUUUGAUAUUUUUCUUUUUAGUUUCCUUGACUAAAGAGGUACAAUAUACUCUGAUCUACCCCUUAAUAUUGAAUAAAAGAACCAAGAAGUUCUUUCAGAUCACCAAUA: 0.307
AUAUUUUCCGGUGCUGAUAUGUUUCCAGACUCCAGCGCAACCUGGGGUGCUCUCCAGACCCGUGCAGGGGCCGCCUGGGGUACACGGAAGGAAGUUGAGUCCUAGUGCAA: 0.523
ACACGUGGUGCUGCUGCCCUGGGUACAGCCCACCAACACCCAGGGCCAGCCAGUAUCACCAGACCUCUGCUGGACCUAGUCAAGAAGCCCAGUUAACAUGUAGAGCAUGG: 1.1
CAGGCUGGCAGCUCUCCAGUCAGGAGGCAUAGUUUUUACUGAACAAUCAAAGCACUUGGACUCUUGCUCUUUCUACUCUGAACUAAUAAAUCUGUUGCCAAGCUGGCUAG: 0.246
GGGGGCUCCCUGGCGCAUGCCUGCUCCUGUCCCUGGAUUACCACACGUGCCCUCCCUGCCACCCUCCGUCUAGAGCAAGCGGAUGCCCCCCAGCCUGCAGCAGAAGCCUC: 2.23
UUCUUUGUGUCAACAUGAACAAAUUUUAUUUGUAGGGGAACUCAUUUGGGGUGCAAAUGCUAAUGUCAAACUUGAGUCACAAAGAACAUGUAGAAAACAAAAUGGAUAAA: 0.871
GCAGAAGAGCGUGGCCUCUCUUAUAGGGAAGAUGUAAUUAUGGAUCAAAGAGUGCUAAGAAAAUUGCGAAGAAGCCUUACUGCUUACACCAGAGAGCUCAGGGCAGCUUU: 0.417
